Literature values, collected from citations in different studies.
Numbers after ± are the reported error.

Structure (SMILES) = CNC1=Nc2ccc(Cl)cc2C(c2ccccc2)=[N+]([O-])C1; target = GABAA receptor α1β3γ2; test = electrophysiology; conditions = 3 µM; scale = reference: GABA current; endpoint = GABA current potentiation; result = 105%
Structure (SMILES) = CCCCCCCC[C@H]1O[C@H]1C/C=C/C=C/[C@H](O)CC(=O)NC1=C[C@](C)(CC)OC1=O; target = Na+-NQR wild type; test = enzyme activity, inhibitor; system = isolated enzyme; endpoint = IC50; result = 5 nM
Structure (SMILES) = O=c1[nH]cc(Cl)cc1O; target = influenza endonuclease; test = enzyme activity, inhibitor; endpoint = IC50; result = 25000 nM
Structure (SMILES) = CN1C(=O)CN=C(c2ccccc2)c2cc(Cl)ccc21; target = GABAA receptor, benzodiazepine site; test = binding; system = brain; conditions = historical reference data, together with: flunitrazepam; endpoint = Hill coefficient; result = 0.8
Structure (SMILES) = Cc1ncc2n1-c1ccc(Cl)cc1C(c1ccccc1F)=NC2; target = UGT1A4; endpoint = Vmax; result = 445 pmol/min/mg protein
Structure (SMILES) = C#Cc1ccc2c(c1)C(c1ccccc1F)=N[C@@H](C)c1c(C(=O)OCC)ncn1-2; target = rat brain GABA-A receptors; test = binding; endpoint = IC50; result = 111 nM
Structure (SMILES) = CCCC(C(=O)c1ccc2c(c1)OCO2)N1CCCC1.Cl (racemic); target = norepinephrine transporter, rat; test = inhibitor; system = rat brain tissue; scale = reference: cocaine; endpoint = relative potency; result = 10 fold
Structure (SMILES) = CCCC(C(=O)c1ccc2c(c1)OCO2)N1CCCC1 (centres unmarked); target = dopamine transporter; test = dopamine uptake, inhibitor; scale = reference: cocaine; endpoint = potency ratio; result = > 50 fold
Structure (SMILES) = O=c1[nH]c(-c2ccc(-c3nnn[nH]3)cc2)ccc1O; target = influenza endonuclease; test = enzyme activity, inhibitor; endpoint = IC50; result = 85 ± 8 nM
Structure (SMILES) = NCCc1ccc(Oc2ccc(O)cc2)c(I)c1; target = mouse TAAR1; test = agonist; endpoint = EC50; result = 112 nM
Structure (SMILES) = CNC(C)C(=O)c1cccc(Cl)c1 (centres unmarked); target = dopamine transporter; test = dopamine release, releaser; endpoint = EC50; result = 47 nM

Some of these lines once more:
Structure (SMILES) = CN1C(=O)CN=C(c2ccccc2)c2cc(Cl)ccc21; target = GABAA receptor, benzodiazepine site; test = binding; system = brain; conditions = historical reference data, together with: flunitrazepam; endpoint = Hill coefficient; result = 0.8
